Published values pooled from the literature.
Compare with care: the assays were run in different laboratories. Numbers after ± are the reported error.

O=c1ccc2ccccc2o1
Hill coefficient (CYP2A6 human; 7-hydroxylation, substrate; human liver microsomes; CYP2A6 added 433 pmol/mg, ratio 1): 1.36 ± 0.48

MRYGW
conversion to cyclic peptide (cytochrome P450 Blt (Micromonospora sp. MW-13); substrate, LC-MS; peptide; overnight, 30 °C, P450 0.5 µM, with: NADH 2 mM): 19%

COc1cc(C=O)cc(OC)c1O
lowest inhibitory concentration (UGT (rat); p-NP glucuronidation, inhibitor; rat kidney microsomes): ≥ 10 µM

CC(C)NC(=O)CCN(C[C@H]1O[C@@H](n2cnc3c(N)ncnc32)[C@H](O)[C@@H]1O)C1CCN(Cc2nc3cc(NC(=O)C(C)(C)C)ccc3[nH]2)CC1
H3K79me2 level ratio (human DOT1L R231Q; inhibitor, western blot, item: H3K79me2 over histone H3; H460 DOT1L R231Q; concentration not given; reference: cpd over SGC0946): 1.29

CC(=O)OC(CC(=O)[O-])C[N+](C)(C)C (centres unmarked)
EC50 (rhodopsin wild type-Rluc fusion; reporter gene; HEK293; 24 h): 1000 nM

O=c1c(O[C@@H]2OC[C@@H](O)[C@H](O)[C@H]2O)c(-c2ccc(O)c(O)c2)oc2cc(O)cc(O)c12
CD value (NAD(P)H quinone oxidoreductase, mouse; enzyme induction, inducer; Hepa-1c1c7; concentration doubling activity): > 20 µM

CN(C)C(=O)CN(C[C@H]1O[C@@H](n2cnc3c(N)ncnc32)[C@H](O)[C@@H]1O)C1CC2CN(C(=O)Nc3ccc(NC(=O)C(C)(C)C)cc3)CC2C1 (some centres unmarked)
H3K79me2 level ratio (human DOT1L R231Q; inhibitor, western blot, item: H3K79me2 over histone H3; H460 DOT1L R231Q; concentration not given; reference: cpd over SGC0946): 1.78

COc1c(-c2ccc(O)c(O)c2)oc2cc(O)cc(OC)c2c1=O
CD value (NAD(P)H quinone oxidoreductase, mouse; enzyme induction, inducer; Hepa-1c1c7; concentration doubling activity): > 20 µM

CC(C)(C)C(=O)Nc1ccc2nc(CN3CCC(N(CC(=O)N4CCC(O)CC4)C[C@H]4O[C@@H](n5cnc6c(N)ncnc65)[C@H](O)[C@@H]4O)CC3)[nH]c2c1
H3K79me2 level ratio (human DOT1L R231Q; inhibitor, western blot, item: H3K79me2 over histone H3; H460 DOT1L R231Q; concentration not given; reference: cpd over SGC0946): 0.747

CCCn1cnc2cc(/C=C/C(=O)NO)ccc2c1=O
IC50 (histone deacetylase; enzyme activity, inhibitor; HeLa nuclear extract): 67 ± 2 nM

COc1cc(C=O)ccc1O
lowest inhibitory concentration (UGT (rat); p-NP glucuronidation, inhibitor; rat liver microsomes): ≥ 0.01 µM
